# Measured values gathered from unrelated publications.
# A part holds a random share of what one study measured.
# UniProt Q9HAZ1, sequence (whole entry, looked up): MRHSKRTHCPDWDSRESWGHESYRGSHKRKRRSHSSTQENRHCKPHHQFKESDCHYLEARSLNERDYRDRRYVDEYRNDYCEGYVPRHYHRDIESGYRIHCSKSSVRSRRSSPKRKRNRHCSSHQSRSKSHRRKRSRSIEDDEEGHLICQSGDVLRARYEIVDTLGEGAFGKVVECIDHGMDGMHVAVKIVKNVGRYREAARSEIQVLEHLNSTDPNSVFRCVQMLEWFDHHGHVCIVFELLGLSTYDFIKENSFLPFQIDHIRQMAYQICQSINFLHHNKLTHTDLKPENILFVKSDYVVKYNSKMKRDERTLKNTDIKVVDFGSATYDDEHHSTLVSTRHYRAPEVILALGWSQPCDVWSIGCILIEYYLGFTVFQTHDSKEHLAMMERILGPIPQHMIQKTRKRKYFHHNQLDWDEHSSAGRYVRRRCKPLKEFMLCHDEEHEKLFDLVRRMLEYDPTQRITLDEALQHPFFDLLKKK
# UniProt P51957, sequence (whole entry, looked up): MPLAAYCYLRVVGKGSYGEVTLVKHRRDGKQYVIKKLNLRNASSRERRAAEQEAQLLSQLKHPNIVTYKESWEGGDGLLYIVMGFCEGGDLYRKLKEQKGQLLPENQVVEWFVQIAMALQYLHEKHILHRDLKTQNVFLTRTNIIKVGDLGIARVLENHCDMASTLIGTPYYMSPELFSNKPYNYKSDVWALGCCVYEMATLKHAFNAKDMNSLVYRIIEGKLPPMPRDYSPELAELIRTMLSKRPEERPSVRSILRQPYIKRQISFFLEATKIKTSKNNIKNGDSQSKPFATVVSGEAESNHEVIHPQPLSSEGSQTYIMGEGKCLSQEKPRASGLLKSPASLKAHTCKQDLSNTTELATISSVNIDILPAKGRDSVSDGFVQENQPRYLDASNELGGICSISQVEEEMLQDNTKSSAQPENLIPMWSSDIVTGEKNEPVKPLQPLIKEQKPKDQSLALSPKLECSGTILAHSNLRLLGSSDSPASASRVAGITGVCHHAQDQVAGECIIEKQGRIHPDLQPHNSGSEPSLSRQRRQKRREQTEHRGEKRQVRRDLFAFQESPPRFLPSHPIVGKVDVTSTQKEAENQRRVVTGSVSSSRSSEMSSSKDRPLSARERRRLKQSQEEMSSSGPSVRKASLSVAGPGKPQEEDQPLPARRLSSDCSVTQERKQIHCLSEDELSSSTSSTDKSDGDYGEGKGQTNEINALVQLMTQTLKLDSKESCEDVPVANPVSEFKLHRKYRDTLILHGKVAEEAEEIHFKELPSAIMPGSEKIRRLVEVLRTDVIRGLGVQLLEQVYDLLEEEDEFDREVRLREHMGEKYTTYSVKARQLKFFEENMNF
# UniProt Q9H4B4, sequence (whole entry, looked up): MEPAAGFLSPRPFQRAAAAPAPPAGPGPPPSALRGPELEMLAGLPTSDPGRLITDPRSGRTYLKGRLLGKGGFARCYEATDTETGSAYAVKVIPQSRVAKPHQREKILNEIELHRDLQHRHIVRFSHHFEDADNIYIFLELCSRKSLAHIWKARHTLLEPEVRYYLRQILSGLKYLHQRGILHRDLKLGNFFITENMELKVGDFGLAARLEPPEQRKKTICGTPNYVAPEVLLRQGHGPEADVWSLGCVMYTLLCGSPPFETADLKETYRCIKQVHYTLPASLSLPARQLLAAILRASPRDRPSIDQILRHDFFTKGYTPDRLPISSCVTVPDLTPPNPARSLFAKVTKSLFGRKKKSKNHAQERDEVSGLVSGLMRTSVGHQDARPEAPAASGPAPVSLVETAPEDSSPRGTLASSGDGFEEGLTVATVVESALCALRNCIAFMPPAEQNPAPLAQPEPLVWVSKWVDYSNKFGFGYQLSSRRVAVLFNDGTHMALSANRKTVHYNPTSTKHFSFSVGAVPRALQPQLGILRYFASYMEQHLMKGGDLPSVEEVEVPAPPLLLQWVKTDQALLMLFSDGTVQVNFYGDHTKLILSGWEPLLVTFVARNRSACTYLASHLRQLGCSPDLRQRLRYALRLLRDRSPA
# UniProt P32298, sequence (whole entry, looked up): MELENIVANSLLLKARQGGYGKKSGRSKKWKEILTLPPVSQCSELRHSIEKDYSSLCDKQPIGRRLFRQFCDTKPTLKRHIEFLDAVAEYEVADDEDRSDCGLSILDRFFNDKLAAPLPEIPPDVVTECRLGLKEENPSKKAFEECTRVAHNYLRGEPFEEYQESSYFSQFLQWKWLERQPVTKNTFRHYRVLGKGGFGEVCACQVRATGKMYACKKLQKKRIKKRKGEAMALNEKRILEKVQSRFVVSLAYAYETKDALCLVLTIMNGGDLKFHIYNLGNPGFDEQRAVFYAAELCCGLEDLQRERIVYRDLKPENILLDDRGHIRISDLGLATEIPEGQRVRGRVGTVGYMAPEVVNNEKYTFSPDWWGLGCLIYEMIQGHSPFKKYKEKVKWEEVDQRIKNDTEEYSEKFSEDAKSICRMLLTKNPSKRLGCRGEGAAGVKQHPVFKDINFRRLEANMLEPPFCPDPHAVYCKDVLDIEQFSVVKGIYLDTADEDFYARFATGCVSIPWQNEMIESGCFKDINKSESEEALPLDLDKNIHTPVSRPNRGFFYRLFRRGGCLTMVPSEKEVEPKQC
# UniProt Q16539, sequence (whole entry, looked up): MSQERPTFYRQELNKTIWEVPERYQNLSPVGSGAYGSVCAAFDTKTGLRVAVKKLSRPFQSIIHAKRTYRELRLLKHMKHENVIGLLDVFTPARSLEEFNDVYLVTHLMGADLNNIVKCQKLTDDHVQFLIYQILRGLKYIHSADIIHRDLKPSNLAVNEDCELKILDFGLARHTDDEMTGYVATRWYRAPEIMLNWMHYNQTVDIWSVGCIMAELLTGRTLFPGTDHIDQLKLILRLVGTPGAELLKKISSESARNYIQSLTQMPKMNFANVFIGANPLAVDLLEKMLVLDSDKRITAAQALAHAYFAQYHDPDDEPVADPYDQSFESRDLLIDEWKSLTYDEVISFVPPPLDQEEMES
# UniProt Q16832, sequence (whole entry, looked up): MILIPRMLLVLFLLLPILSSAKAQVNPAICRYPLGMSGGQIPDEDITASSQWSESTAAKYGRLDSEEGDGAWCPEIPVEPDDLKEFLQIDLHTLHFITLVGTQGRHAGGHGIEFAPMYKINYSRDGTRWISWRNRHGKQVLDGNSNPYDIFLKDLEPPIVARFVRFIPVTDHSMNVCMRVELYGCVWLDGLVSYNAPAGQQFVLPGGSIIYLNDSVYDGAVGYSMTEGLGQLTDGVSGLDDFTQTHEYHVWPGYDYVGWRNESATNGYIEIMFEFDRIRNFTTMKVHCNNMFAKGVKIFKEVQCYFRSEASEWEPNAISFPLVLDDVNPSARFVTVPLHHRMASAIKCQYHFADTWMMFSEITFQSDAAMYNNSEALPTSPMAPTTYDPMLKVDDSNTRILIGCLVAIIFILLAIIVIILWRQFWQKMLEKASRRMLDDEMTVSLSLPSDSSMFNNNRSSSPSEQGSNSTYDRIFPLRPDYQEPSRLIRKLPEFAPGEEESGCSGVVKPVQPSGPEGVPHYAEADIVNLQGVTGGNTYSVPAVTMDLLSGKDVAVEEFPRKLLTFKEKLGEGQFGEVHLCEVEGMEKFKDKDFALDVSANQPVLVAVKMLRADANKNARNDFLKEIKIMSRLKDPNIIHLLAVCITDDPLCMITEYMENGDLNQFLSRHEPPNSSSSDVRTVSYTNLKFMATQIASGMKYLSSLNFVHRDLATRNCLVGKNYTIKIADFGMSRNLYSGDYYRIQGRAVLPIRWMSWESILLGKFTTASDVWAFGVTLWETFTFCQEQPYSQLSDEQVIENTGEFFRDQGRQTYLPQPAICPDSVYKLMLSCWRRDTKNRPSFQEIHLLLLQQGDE
# UniProt P51956, sequence (whole entry, looked up): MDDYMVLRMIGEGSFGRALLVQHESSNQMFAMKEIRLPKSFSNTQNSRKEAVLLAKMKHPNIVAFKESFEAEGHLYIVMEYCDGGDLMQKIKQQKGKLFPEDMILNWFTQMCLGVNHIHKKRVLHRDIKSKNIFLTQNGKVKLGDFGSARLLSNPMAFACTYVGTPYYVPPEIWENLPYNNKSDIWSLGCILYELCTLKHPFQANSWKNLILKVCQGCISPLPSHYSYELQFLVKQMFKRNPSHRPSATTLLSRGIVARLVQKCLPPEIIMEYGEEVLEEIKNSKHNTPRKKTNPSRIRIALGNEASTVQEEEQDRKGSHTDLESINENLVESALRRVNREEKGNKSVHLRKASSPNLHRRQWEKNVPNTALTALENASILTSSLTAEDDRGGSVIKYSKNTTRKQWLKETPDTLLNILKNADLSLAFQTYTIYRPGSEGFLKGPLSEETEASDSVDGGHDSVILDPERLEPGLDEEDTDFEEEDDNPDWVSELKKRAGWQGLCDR
# UniProt O75676, sequence (whole entry, looked up): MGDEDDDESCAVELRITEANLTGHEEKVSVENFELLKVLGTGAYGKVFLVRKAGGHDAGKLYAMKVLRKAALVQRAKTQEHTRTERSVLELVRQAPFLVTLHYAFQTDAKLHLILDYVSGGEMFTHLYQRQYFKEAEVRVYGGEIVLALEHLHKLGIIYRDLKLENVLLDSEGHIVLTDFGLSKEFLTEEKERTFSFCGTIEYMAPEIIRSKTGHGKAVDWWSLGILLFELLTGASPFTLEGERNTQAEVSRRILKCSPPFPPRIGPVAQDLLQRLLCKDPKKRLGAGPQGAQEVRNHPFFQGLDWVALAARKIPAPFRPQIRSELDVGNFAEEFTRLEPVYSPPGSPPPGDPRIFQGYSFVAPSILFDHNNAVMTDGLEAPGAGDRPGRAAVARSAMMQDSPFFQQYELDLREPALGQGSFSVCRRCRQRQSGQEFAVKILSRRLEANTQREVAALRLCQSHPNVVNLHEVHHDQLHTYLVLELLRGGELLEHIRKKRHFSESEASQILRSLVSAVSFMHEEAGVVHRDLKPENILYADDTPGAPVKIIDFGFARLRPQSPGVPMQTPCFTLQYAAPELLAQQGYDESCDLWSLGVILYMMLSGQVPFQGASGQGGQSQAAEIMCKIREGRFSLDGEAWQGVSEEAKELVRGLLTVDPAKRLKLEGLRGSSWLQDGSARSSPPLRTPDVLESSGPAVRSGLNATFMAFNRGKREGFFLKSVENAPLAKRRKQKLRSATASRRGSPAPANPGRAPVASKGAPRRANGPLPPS

# Study 1 — cell line: mouse MPNST tumor cells; method: high-content nuclear imaging; item: cell number; concentration: 10 µM; time: 12 h; notes: mean of 2 replicates; reference: plate mean; direction: higher = more cells
SMILES,nuclei count [z-score]
N=C(N)Nc1ccc(C(=O)Oc2ccc3cc(C(=N)N)ccc3c2)cc1,1.19
O=c1ncn2nc(Sc3ccc(F)cc3F)ccc2c1-c1c(Cl)cccc1Cl,2.07
Cc1ccc(C(=O)c2cc(O)c(O)c([N+](=O)[O-])c2)cc1,0.95
Nc1nc2c(c(N3CCNCC3)n1)CCC1=C2C2CCCCC2O1 (stereo not drawn),1.54
O=C(c1cc2c(s1)CCCCC2)N1CCC(n2c(=O)[nH]c3ccccc32)CC1,1.28
O=C(N/N=C/c1ccc([N+](=O)[O-])o1)c1ccc(O)cc1,-0.629
Nc1nc(NCCc2ccc(O)cc2)nc2nc(-c3ccco3)nn12,2.9
CN(C)CCN(Cc1ccc(-c2ccc(CNCCc3ccccc3)cc2)cc1)C(=O)CCC1CCCC1,-6.36

# Study 2 — read-out: cell-free assay; method: competition with immobilised ligand; concentration: 1 µM
# SMILES: O=C1CCc2cc(Nc3cc(OC4CCOCC4)c([N+](=O)[O-])cc3Cl)ccc2N1
target,remaining binding [%]
"Dual specificity protein kinase CLK4 (CLK4, Homo sapiens, UniProt Q9HAZ1)",88
"Fibroblast growth factor receptor 2 (FGFR2, Homo sapiens, UniProt P21802)",100
"Activated CDC42 kinase 1 (TNK2, Homo sapiens, UniProt Q07912)",100
"Phosphatidylinositol 4,5-bisphosphate 3-kinase catalytic subunit delta isoform (PIK3CD, Homo sapiens, UniProt O00329)",94
"Cyclin-dependent kinase-like 1 (CDKL1, Homo sapiens, UniProt Q00532)",78
"Myosin light chain kinase, smooth muscle (MYLK, Homo sapiens, UniProt Q15746)",94
"Ribosomal protein S6 kinase alpha-3, N-terminal kinase domain (RPS6KA3, Homo sapiens, UniProt P51812)",100

# Study 3 — read-out: enzyme activity; action: inhibitor; concentration: 0.5 µM; reference: control
# SMILES: Nc1nc(Nc2ccc(S(N)(=O)=O)cc2)nn1C(=O)c1c(F)cccc1F
target,remaining activity [%]
"Dual specificity protein kinase CLK4 (CLK4, Homo sapiens, UniProt Q9HAZ1)",41.6
"Serine/threonine-protein kinase MRCK beta (CDC42BPB, Homo sapiens, UniProt Q9Y5S2)",96
"Calcium/calmodulin-dependent protein kinase type 1B (PNCK, Homo sapiens, UniProt Q6P2M8)",107
"Misshapen-like kinase 1 (MINK1, Homo sapiens, UniProt Q8N4C8)",98.1
"Mitogen-activated protein kinase 1 (MAPK1, Homo sapiens, UniProt P28482)",98.4
"Vascular endothelial growth factor receptor 2 (KDR, Homo sapiens, UniProt P35968)",64.6
"Rho-associated protein kinase 1 (ROCK1, Homo sapiens, UniProt Q13464)",42.6
"Cyclin-dependent kinase 9, with cyclin K (CDK9, Homo sapiens, UniProt P50750)",27.4
"Serine/threonine-protein kinase Nek3 (NEK3, Homo sapiens, UniProt P51956)",92.6
"Ribosomal protein S6 kinase alpha-4 (RPS6KA4, Homo sapiens, UniProt O75676)",90.2
"Mitogen-activated protein kinase 11 (MAPK11, Homo sapiens, UniProt Q15759)",94
"Mitogen-activated protein kinase 14 (MAPK14, Homo sapiens, UniProt Q16539)",97.8
"Discoidin domain-containing receptor 2 (DDR2, Homo sapiens, UniProt Q16832)",113
"G protein-coupled receptor kinase 4 (GRK4, Homo sapiens, UniProt P32298)",94.7
"MAP/microtubule affinity-regulating kinase 4 (MARK4, Homo sapiens, UniProt Q96L34)",48
"Dual specificity protein kinase CLK3 (CLK3, Homo sapiens, UniProt P49761)",65.8
"Calcium/calmodulin-dependent protein kinase type IV (CAMK4, Homo sapiens, UniProt Q16566)",96.8
"Serine/threonine-protein kinase PLK3 (PLK3, Homo sapiens, UniProt Q9H4B4)",91.3
"Serine/threonine-protein kinase DCLK2 (DCLK2, Homo sapiens, UniProt Q8N568)",85.3
"Hepatocyte growth factor receptor (MET, Homo sapiens, UniProt P08581)",75.3
"Tyrosine-protein kinase TXK (TXK, Homo sapiens, UniProt P42681)",95.8

# Study 4 — Structure (SMILES): O=C(Nc1ccccc1)Nc1cccc(Oc2ccc3nccn3n2)c1; concentration: 1 µM
target,method,item,notes,reference,remaining binding [%]
"ALK tyrosine kinase receptor (ALK, Homo sapiens, UniProt Q9UM73)",competitive binding panel,,,vehicle,83
"Mitogen-activated protein kinase kinase kinase 20 (MAP3K20, Homo sapiens, UniProt Q9NYL2)",competitive binding panel,ZAK,,vehicle,65
"Macrophage colony-stimulating factor 1 receptor (CSF1R, Homo sapiens, UniProt P07333)",competitive binding scan,,autoinhibited form,,100
"Serine/threonine-protein kinase Nek4 (NEK4, Homo sapiens, UniProt P51957)",competitive binding panel,,,vehicle,100
"NT-3 growth factor receptor (NTRK3, Homo sapiens, UniProt Q16288)",competitive binding,,TRKC,,73

# Study 5 — species: mouse; medium: microsomes or S9; concentration: 2 µM; time: 0.5 h
Structure (SMILES),remaining compound
Cc1ccc(OCCn2c(C)c(/C=N/n3cnnc3)c3ccccc32)cc1C,24.5%
COc1cccc(N2CCN(c3ncnc4[nH]cnc34)CC2)c1,57.3%
O=C(Nc1cccnc1Cl)NC1CCc2[nH]cnc2C1 (stereo not drawn),82.9%
O=C(c1ccc2c(c1)N(Cc1ccc(Cl)cc1)C(=O)c1ccccc1[S+]2[O-])N1CCN(c2ccccn2)CC1 (stereo not drawn),0.712%
CCCc1noc2c1C(=O)CC(c1c(C)cc(C)cc1C)C2 (stereo not drawn),20.5%

# Other studies, line by line — organism: Plasmodium berghei; cell line: Huh-7; concentration: 10 µM; time: 24 h; notes: liver stage
SMILES,inhibition
COc1ccc2cc([C@H](C)C(=O)O)ccc2c1,91.6%
CNCCC[C@]12CC[C@H](c3ccccc31)c1ccccc12,91.7%

# Repeated from above (study 5):
Structure (SMILES),remaining compound
O=C(c1ccc2c(c1)N(Cc1ccc(Cl)cc1)C(=O)c1ccccc1[S+]2[O-])N1CCN(c2ccccn2)CC1 (stereo not drawn),0.712%
COc1cccc(N2CCN(c3ncnc4[nH]cnc34)CC2)c1,57.3%
O=C(Nc1cccnc1Cl)NC1CCc2[nH]cnc2C1 (stereo not drawn),82.9%
